Measurements pooled from the literature.
Protocols differ between the studies behind these lines. ± gives the spread as reported.
Scn4a: Sodium channel protein type 4 subunit alpha (Scn4a, Rattus norvegicus, UniProt P15390)
PKG: cGMP-dependent protein kinase (PKG, Plasmodium falciparum, UniProt Q8I719)
Scn2a: Sodium channel protein type 2 subunit alpha (Scn2a, Rattus norvegicus, UniProt P04775)
Secreted effector protein C403A/D356A: Secreted effector protein (Yersinia pestis, UniProt O68720, C403A/D356A)

Amino acid sequences for entries named in this document (tags omitted). Chains listed by the source or under a name are the forms on record and can include a tag or linker. Residues count along the entry.
UniProt P15390, whole entry: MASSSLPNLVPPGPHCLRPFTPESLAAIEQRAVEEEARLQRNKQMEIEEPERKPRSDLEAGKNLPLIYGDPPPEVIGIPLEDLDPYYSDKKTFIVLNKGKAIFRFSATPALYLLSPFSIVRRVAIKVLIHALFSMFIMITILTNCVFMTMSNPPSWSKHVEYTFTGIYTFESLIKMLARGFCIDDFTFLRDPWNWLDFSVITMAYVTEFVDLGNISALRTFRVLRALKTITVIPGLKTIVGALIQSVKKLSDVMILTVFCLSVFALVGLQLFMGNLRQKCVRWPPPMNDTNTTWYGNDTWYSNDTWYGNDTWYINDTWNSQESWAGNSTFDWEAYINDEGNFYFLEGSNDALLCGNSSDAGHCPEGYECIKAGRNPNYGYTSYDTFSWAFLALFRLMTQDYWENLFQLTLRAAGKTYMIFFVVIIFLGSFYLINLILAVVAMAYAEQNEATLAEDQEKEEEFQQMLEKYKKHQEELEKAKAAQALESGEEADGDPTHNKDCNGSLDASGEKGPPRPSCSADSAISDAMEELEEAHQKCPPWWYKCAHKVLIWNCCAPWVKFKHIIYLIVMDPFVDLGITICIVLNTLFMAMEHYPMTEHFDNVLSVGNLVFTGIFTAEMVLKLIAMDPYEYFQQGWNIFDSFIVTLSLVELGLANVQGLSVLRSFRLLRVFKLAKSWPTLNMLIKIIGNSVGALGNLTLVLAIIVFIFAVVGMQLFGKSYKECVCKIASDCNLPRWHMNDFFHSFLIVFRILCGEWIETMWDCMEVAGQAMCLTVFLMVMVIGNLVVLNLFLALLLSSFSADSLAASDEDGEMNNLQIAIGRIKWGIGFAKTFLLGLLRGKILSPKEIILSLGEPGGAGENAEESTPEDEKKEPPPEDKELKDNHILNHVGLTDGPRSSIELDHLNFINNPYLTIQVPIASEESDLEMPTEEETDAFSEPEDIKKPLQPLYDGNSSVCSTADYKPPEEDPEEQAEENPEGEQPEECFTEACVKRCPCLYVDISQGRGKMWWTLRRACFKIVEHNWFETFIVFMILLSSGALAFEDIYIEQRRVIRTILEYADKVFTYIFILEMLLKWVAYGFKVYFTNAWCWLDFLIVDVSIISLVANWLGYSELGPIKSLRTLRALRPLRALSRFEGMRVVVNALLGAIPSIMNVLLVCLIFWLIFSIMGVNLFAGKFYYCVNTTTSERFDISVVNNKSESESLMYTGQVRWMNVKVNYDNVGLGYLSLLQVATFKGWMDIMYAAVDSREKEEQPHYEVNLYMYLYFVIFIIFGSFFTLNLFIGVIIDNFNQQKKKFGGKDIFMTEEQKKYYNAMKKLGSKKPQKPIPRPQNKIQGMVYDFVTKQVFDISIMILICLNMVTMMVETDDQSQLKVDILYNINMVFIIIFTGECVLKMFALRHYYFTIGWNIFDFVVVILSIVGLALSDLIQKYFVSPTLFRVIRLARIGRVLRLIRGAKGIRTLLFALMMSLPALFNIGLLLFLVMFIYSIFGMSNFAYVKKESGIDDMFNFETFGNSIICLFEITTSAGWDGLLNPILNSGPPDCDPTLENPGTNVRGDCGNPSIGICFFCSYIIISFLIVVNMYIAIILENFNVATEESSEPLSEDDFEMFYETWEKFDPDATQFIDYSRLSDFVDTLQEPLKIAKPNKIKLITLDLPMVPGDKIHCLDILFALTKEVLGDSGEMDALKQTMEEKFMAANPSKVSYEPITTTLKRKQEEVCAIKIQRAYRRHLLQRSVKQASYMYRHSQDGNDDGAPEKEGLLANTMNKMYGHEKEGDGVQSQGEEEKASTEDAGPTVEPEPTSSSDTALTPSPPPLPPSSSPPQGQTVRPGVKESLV
UniProt Q8I719, whole entry: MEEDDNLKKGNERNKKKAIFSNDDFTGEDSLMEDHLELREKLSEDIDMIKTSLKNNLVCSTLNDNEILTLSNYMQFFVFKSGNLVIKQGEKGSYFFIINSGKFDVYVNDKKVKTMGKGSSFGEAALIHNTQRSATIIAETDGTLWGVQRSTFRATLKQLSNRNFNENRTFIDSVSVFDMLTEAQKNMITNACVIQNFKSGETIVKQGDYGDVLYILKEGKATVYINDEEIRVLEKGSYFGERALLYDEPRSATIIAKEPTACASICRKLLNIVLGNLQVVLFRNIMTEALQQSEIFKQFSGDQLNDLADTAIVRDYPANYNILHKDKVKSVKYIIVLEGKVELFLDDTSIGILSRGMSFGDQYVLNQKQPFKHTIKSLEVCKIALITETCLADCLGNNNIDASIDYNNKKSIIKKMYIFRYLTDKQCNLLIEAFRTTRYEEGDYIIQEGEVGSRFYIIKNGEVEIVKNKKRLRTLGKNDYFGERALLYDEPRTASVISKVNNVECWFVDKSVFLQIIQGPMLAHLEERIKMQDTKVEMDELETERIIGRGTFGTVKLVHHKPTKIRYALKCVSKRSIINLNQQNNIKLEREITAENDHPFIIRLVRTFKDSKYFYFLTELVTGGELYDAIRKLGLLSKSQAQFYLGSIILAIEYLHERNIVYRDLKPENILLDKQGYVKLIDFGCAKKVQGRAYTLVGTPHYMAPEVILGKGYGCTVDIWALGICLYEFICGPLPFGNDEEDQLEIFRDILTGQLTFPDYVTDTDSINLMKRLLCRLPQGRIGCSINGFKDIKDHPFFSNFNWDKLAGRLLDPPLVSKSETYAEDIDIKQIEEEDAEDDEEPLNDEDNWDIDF
UniProt O94925, 72-550 limits assumed: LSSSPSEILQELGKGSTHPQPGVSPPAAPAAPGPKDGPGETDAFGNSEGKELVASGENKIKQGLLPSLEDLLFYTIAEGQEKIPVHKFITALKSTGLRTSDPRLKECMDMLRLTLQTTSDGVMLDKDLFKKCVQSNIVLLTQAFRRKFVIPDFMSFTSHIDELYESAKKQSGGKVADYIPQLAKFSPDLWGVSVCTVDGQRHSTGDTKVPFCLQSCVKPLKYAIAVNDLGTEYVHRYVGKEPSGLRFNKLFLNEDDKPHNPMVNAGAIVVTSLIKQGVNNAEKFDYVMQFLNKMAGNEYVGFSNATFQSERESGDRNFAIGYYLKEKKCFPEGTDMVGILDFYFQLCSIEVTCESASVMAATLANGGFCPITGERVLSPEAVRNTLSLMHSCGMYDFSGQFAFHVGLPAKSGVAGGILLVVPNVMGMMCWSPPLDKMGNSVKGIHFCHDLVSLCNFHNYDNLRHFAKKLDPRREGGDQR
UniProt P08510, 1-655 with tags or gaps DEL6-46: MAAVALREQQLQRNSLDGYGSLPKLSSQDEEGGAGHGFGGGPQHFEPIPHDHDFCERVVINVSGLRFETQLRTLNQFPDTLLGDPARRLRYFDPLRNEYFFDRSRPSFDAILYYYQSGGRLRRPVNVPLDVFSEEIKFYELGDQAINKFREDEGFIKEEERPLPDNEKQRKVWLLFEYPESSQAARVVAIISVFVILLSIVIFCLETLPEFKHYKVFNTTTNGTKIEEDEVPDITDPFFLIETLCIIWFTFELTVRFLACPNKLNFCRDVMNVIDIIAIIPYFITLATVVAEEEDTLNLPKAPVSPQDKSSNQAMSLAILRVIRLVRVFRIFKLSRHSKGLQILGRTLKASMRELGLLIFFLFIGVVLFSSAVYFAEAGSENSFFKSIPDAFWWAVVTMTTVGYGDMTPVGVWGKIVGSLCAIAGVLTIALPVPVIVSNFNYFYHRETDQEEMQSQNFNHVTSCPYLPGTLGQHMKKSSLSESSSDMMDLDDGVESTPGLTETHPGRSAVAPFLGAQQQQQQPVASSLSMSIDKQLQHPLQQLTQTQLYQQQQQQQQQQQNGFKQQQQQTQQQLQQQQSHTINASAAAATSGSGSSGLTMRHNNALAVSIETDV
UniProt P22303, whole entry, looked up: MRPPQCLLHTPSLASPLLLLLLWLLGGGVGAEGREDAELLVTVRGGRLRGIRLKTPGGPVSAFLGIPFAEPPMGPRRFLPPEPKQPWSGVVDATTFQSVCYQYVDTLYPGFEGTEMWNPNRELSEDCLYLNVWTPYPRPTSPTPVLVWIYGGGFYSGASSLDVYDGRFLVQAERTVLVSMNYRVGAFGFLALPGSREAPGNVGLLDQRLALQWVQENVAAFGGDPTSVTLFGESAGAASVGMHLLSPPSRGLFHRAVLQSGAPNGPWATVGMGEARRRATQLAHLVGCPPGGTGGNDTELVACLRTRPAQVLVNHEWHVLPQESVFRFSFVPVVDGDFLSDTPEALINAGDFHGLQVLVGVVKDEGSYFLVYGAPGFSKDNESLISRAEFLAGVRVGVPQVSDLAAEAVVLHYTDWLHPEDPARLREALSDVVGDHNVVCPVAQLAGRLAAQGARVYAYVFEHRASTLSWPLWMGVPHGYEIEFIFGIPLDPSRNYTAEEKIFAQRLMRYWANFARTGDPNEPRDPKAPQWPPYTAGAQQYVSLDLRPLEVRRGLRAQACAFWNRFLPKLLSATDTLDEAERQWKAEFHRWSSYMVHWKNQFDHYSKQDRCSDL
UniProt P08104, whole entry: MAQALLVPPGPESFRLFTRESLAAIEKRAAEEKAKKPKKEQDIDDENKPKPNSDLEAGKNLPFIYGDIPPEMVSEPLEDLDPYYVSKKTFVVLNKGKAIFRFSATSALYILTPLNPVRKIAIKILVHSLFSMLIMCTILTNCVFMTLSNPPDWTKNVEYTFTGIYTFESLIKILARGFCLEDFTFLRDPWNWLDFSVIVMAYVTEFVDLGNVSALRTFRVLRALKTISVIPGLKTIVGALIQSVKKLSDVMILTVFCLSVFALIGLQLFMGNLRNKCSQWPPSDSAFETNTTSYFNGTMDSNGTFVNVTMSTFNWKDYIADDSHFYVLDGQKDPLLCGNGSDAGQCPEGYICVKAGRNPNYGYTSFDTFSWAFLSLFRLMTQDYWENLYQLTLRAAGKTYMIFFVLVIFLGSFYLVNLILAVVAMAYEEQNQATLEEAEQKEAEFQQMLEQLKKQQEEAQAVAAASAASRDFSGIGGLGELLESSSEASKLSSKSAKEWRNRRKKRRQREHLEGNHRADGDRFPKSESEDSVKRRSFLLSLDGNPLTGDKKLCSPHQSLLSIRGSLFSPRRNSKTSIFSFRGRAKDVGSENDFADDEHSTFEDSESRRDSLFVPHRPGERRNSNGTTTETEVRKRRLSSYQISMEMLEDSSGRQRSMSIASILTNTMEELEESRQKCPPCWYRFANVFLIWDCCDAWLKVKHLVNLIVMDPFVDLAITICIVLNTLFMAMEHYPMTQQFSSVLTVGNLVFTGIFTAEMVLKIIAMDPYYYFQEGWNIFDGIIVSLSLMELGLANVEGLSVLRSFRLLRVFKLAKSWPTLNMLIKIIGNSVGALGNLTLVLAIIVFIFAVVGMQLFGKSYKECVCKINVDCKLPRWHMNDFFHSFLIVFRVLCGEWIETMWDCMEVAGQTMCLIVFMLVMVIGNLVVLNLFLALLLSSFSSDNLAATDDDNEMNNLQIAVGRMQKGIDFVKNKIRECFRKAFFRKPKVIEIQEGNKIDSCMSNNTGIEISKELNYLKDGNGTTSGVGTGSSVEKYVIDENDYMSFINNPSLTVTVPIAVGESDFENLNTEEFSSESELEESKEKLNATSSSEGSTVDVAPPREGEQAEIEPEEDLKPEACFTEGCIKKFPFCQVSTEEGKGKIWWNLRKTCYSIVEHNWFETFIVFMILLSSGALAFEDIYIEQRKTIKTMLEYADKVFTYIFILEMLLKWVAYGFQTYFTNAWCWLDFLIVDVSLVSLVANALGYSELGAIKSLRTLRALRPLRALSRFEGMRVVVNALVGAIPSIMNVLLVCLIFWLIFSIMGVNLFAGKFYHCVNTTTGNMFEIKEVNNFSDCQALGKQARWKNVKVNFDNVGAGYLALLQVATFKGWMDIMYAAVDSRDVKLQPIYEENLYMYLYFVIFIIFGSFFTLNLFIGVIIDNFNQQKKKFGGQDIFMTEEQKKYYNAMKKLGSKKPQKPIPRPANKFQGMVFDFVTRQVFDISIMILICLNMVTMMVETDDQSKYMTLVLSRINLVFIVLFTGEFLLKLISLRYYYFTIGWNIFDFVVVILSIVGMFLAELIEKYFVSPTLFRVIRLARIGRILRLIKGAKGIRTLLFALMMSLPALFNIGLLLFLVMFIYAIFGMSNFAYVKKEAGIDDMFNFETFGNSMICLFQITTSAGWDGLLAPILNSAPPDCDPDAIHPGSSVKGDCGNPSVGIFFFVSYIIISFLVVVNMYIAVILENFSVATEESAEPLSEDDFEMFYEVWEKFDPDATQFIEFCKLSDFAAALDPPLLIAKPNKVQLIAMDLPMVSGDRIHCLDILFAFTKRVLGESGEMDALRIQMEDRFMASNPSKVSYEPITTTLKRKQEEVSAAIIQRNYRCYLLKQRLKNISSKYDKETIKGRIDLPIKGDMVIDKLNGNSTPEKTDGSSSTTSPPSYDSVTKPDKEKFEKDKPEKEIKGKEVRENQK

O=[N+]([O-])c1cc([As](O)O)ccc1O
Kd (Glutaminase kidney isoform, mitochondrial (GLS, Homo sapiens, UniProt O94925); binding; 20 °C): 30 µM

CC(C)[C@H](N)C(=O)NCC(=O)N[C@@H](CCC(=O)O)C(=O)N[C@@H](CCCNC(=N)N)C(=O)N[C@H]1C[Se][Se]C[C@@H]2NC(=O)[C@H](Cc3c[nH]c4ccccc34)NC(=O)[C@H](CCCNC(=N)N)NC(=O)CNC(=O)[C@H](CSSC[C@@H](C(N)=O)NC(=O)[C@H](C)NC(=O)[C@H](CCCNC(=N)N)NC(=O)[C@H](CO)NC(=O)[C@H](Cc3c[nH]cn3)NC(=O)[C@H](CC(=O)O)NC(=O)[C@H](CCCNC(=N)N)NC2=O)NC(=O)CNC(=O)[C@H](CCCNC(=N)N)NC(=O)[C@H](CCCCN)NC(=O)CNC(=O)[C@H](CC(N)=O)NC(=O)[C@H](CCCCN)NC(=O)[C@H](C)NC1=O
Kd (Scn4a; sodium current, blocker, two-electrode voltage clamp; Xenopus laevis oocytes): 0.001 µM

CC[C@H](C)[C@@H]1NC(=O)[C@H](CCCNC(=N)N)NC(=O)[C@@H](N)CSSC[C@@H]2NC(=O)[C@@H]3CSSC[C@@H](C(=O)N[C@H](C(=O)O)C(C)C)NC(=O)[C@H](CCCCN)NC(=O)[C@H](CC(N)=O)NC(=O)[C@H](Cc4ccccc4)NC(=O)[C@H](CCCNC(=N)N)NC(=O)[C@H](CC(N)=O)NC(=O)[C@H](CSSC[C@H](NC(=O)[C@H](CCCCN)NC(=O)[C@H](CCC(N)=O)NC(=O)[C@H](CC(N)=O)NC(=O)[C@@H]4C[C@@H](O)CN4C1=O)C(=O)N[C@@H](Cc1ccccc1)C(=O)N[C@@H](CCC(N)=O)C(=O)N[C@@H](Cc1c[nH]cn1)C(=O)N[C@@H](CC(C)C)C(=O)N[C@@H](CC(=O)O)C(=O)N[C@@H](CC(=O)O)C(=O)N3)NC(=O)[C@H](CCCCN)NC(=O)[C@H](CCCNC(=N)N)NC(=O)[C@H](CO)NC2=O
Kd (Sh (Drosophila melanogaster, UniProt P08510, del6-46); potassium current, outside-out patch clamp; pulse application, zero voltage, internal K 100, added: 1 mM TEA): 0.341 ± 0.038 µM

CCN(CC)Cc1onc(-c2cccc(Cl)c2)c1-c1ccnc(N[C@@H]2CCN(C(=O)c3ccn(C)n3)C2)n1
Ki (PKG; kinase activity, inhibitor, IMAP): 0.0009 ± 0.0005 µM

C[C@@H]1NC(=O)[C@H](Cc2c[nH]cn2)NC(=O)[C@H](CC(=O)O)NC(=O)[C@H](CCCNC(=N)N)NC(=O)[C@@H]2CSSC[C@H](NC(=O)[C@H](CC(N)=O)NC(=O)[C@@H]3CCC(=O)N3)C(=O)N[C@H]3CSSC[C@H](NC(=O)[C@H](CCCNC(=N)N)NC1=O)C(=O)N[C@H](C(N)=O)CSSC[C@H](NC(=O)CNC(=O)CNC(=O)[C@H](CC(N)=O)NC3=O)C(=O)N[C@@H](CO)C(=O)N[C@@H](CO)C(=O)N[C@@H](CCCCN)C(=O)N[C@@H](Cc1c[nH]c3ccccc13)C(=O)N2
Kd (Scn2a; ion current, blocker, electrophysiology): 0.047 ± 0.016 µM

CC(C(=O)O)c1nn(C)c2nc(N)[nH]c(=O)c2c1=O (centres unmarked)
Kd (Dihydropteroate synthase (Bacillus anthracis, UniProt Q81VW8); isothermal titration calorimetry; pH 7.6): 0.124 ± 0.017 µM

CC(C)[C@H]1CC[C@@H](N2CCC3(CC2)C(=O)NCN3c2ccccc2)CC1
potency ratio (Nociceptin receptor (OPRL1, Homo sapiens, UniProt P41146); G protein interaction, BRET; HEK293 membranes; reference: compound EC50 over N/OFQ EC50): 28

C[C@H](N)C(=O)N[C@H]1CSSC[C@@H]2NC(=O)[C@H](CCCNC(=N)N)NC(=O)[C@H](CO)NC(=O)[C@H](Cc3cnc[nH]3)NC(=O)[C@H](CC(=O)O)NC(=O)[C@H](CCCNC(=N)N)NC(=O)[C@H](C)NC(=O)[C@H](Cc3c[nH]c4ccccc34)NC(=O)[C@H](CCCCN)NC(=O)[C@H](CO)NC(=O)[C@H](CO)NC(=O)[C@H](CSSC[C@@H](C(N)=O)NC2=O)NC(=O)[C@H](CC(N)=O)NC1=O
Kd (Scn4a; sodium current, blocker, two-electrode voltage clamp; Xenopus oocytes): 0.24 ± 0.05 µM

O=C(NC1CCN(c2ncnc3[nH]cnc23)CC1)c1cccc(S(=O)(=O)Nc2ccc(Cl)cc2)c1
relative infection (SARS-CoV-2; Wuhan-Hu-1; 0.03048 µM; reference: untreated infected cells): 78.6%

C[C@@H]1NC(=O)[C@H](CCCNC(=N)N)NC(=O)[C@H](CO)NC(=O)[C@H](Cc2cnc[nH]2)NC(=O)[C@H](CC(=O)O)NC(=O)[C@H](CCCNC(=N)N)NC(=O)[C@@H]2CSSC[C@H](N)C(=O)N[C@@H](C)C(=O)N[C@@H](CC(N)=O)C(=O)N[C@@H](CSSC[C@@H](C(N)=O)NC1=O)C(=O)N[C@@H](CO)C(=O)N[C@@H](CO)C(=O)N[C@@H](CCCCN)C(=O)N[C@@H](Cc1c[nH]c3ccccc13)C(=O)N2
Kd (Scn4a; sodium current, blocker, two-electrode voltage clamp; Xenopus oocytes): 0.37 ± 0.11 µM

CCOP(=O)(OCC)ON1C(=O)c2cccc3cccc(c23)C1=O
IC50 (Acetylcholinesterase (Ache, Rattus norvegicus, UniProt P37136); inhibitor; rat, postnatal day 1, rat serum): 0.039 µM

O=C(N[C@@H]1CCC[C@H](Nc2nc(-c3n[nH]c4ncc(F)cc34)ncc2F)C1)c1ccc(-c2c3ccc(=O)cc-3oc3cc(O)ccc23)c(C(=O)O)c1
Kd (Polymerase basic protein 2, cap-binding domain (Influenza A virus, UniProt Q2LG68)): 0.017 ± 0.004 µM

C[C@@H]1NC(=O)[C@H](Cc2c[nH]cn2)NC(=O)[C@H](CC(=O)O)NC(=O)[C@H](CCCNC(=N)N)NC(=O)[C@@H]2C[Se][Se]C[C@H](NC(=O)[C@H](CC(N)=O)NC(=O)[C@@H]3CCC(=O)N3)C(=O)N[C@H]3CSSC[C@H](NC(=O)[C@H](CCCNC(=N)N)NC1=O)C(=O)N[C@H](C(N)=O)CSSC[C@H](NC(=O)CNC(=O)CNC(=O)[C@H](CC(N)=O)NC3=O)C(=O)N[C@@H](CO)C(=O)N[C@@H](CO)C(=O)N[C@@H](CCCCN)C(=O)N[C@@H](Cc1c[nH]c3ccccc13)C(=O)N2
Kd (Scn2a; ion current, blocker, electrophysiology): 0.046 ± 0.038 µM

CS(=O)(=O)Cc1onc(-c2cccc(Cl)c2)c1-c1ccnc(N[C@@H]2CCN(C(=O)c3nccs3)C2)n1
Ki (PKG; kinase activity, inhibitor, IMAP): 0.0006 ± 6e-05 µM

O=P(O)(O)C(F)(F)c1cccc(-c2ccc(CO/N=C/c3ccco3)cc2)c1
Kd (Secreted effector protein C403A/D356A; surface plasmon resonance; immobilized protein): 148 µM

O=C(Nc1ccc2nc3c(=O)[nH]c(=O)[nH]c3nc2c1)C(F)(F)F
Kd (Replicase polyprotein 1ab, nsp3 Mac1 domain (rep, Severe acute respiratory syndrome coronavirus 2, UniProt P0DTD1)): 1.64 ± 0.7 µM

Cc1ccccc1S(=O)(=O)Nc1cccc(C(=O)NC2CCN(c3ncnc4[nH]cnc34)CC2)c1
relative infection (SARS-CoV-2; Wuhan-Hu-1; 0.01016 µM; reference: untreated infected cells): 88%

CCN(CC)Cc1cc(N)ccc1O
Kd (Acetylcholinesterase, VR-inhibited (ACHE, Homo sapiens, UniProt P22303); enzyme reactivation, reactivator; VR): 5460 ± 2020 µM

CC(C)[C@H](N)C(=O)NCC(=O)N[C@@H](CCC(=O)O)C(=O)N[C@@H](CCCNC(=N)N)C(=O)N[C@H]1CSSC[C@@H]2NC(=O)[C@H](Cc3c[nH]c4ccccc34)NC(=O)[C@H](CCCNC(=N)N)NC(=O)CNC(=O)[C@H](CSSC[C@@H](C(N)=O)NC(=O)[C@H](C)NC(=O)[C@H](CCCNC(=N)N)NC(=O)[C@H](CO)NC(=O)[C@H](Cc3cnc[nH]3)NC(=O)[C@H](CC(=O)O)NC(=O)[C@H](CCCNC(=N)N)NC2=O)NC(=O)CNC(=O)[C@H](CCCNC(=N)N)NC(=O)[C@H](CCCCN)NC(=O)CNC(=O)[C@H](CC(N)=O)NC(=O)[C@H](CCCCN)NC(=O)[C@H](C)NC1=O
Kd (Sodium channel protein type 3 subunit alpha (Scn3a, Rattus norvegicus, UniProt P08104); sodium current, blocker, two-electrode voltage clamp; Xenopus laevis oocytes): 0.26 ± 0.03 µM

N[C@@H](Cc1ccc(OP(=O)(O)O)cc1)C(=O)O
Kd (Secreted effector protein C403A/D356A; surface plasmon resonance; immobilized protein): 10000 µM

A few entries again:
C[C@@H]1NC(=O)[C@H](Cc2c[nH]cn2)NC(=O)[C@H](CC(=O)O)NC(=O)[C@H](CCCNC(=N)N)NC(=O)[C@@H]2CSSC[C@H](NC(=O)[C@H](CC(N)=O)NC(=O)[C@@H]3CCC(=O)N3)C(=O)N[C@H]3CSSC[C@H](NC(=O)[C@H](CCCNC(=N)N)NC1=O)C(=O)N[C@H](C(N)=O)CSSC[C@H](NC(=O)CNC(=O)CNC(=O)[C@H](CC(N)=O)NC3=O)C(=O)N[C@@H](CO)C(=O)N[C@@H](CO)C(=O)N[C@@H](CCCCN)C(=O)N[C@@H](Cc1c[nH]c3ccccc13)C(=O)N2
Kd (Scn2a; ion current, blocker, electrophysiology): 0.047 ± 0.016 µM

CC(C)[C@H](N)C(=O)NCC(=O)N[C@@H](CCC(=O)O)C(=O)N[C@@H](CCCNC(=N)N)C(=O)N[C@H]1CSSC[C@@H]2NC(=O)[C@H](Cc3c[nH]c4ccccc34)NC(=O)[C@H](CCCNC(=N)N)NC(=O)CNC(=O)[C@H](CSSC[C@@H](C(N)=O)NC(=O)[C@H](C)NC(=O)[C@H](CCCNC(=N)N)NC(=O)[C@H](CO)NC(=O)[C@H](Cc3cnc[nH]3)NC(=O)[C@H](CC(=O)O)NC(=O)[C@H](CCCNC(=N)N)NC2=O)NC(=O)CNC(=O)[C@H](CCCNC(=N)N)NC(=O)[C@H](CCCCN)NC(=O)CNC(=O)[C@H](CC(N)=O)NC(=O)[C@H](CCCCN)NC(=O)[C@H](C)NC1=O
Kd (Sodium channel protein type 3 subunit alpha (Scn3a, Rattus norvegicus, UniProt P08104); sodium current, blocker, two-electrode voltage clamp; Xenopus laevis oocytes): 0.26 ± 0.03 µM

O=C(N[C@@H]1CCC[C@H](Nc2nc(-c3n[nH]c4ncc(F)cc34)ncc2F)C1)c1ccc(-c2c3ccc(=O)cc-3oc3cc(O)ccc23)c(C(=O)O)c1
Kd (Polymerase basic protein 2, cap-binding domain (Influenza A virus, UniProt Q2LG68)): 0.017 ± 0.004 µM
